Measurements collected from several papers.
Every numbered part comes from another study and shows a few of its results, in no order.
Chain of UniProt P35462 (whole entry, looked up): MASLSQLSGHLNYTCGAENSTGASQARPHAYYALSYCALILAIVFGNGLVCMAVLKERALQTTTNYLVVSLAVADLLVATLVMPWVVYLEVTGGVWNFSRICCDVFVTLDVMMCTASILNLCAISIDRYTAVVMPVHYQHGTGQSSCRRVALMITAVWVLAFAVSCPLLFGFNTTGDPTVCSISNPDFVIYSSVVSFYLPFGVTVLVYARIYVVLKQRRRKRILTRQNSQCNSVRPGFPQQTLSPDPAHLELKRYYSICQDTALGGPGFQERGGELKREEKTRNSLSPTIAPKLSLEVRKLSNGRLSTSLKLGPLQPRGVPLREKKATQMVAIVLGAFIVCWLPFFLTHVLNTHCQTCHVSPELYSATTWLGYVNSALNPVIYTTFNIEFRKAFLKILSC

Study 1
Target: Sal-like protein 4, full length isoform A (SALL4, Homo sapiens, UniProt Q9UJQ4, residues 1-1053)
Chain of UniProt Q9UJQ4 (whole entry, looked up): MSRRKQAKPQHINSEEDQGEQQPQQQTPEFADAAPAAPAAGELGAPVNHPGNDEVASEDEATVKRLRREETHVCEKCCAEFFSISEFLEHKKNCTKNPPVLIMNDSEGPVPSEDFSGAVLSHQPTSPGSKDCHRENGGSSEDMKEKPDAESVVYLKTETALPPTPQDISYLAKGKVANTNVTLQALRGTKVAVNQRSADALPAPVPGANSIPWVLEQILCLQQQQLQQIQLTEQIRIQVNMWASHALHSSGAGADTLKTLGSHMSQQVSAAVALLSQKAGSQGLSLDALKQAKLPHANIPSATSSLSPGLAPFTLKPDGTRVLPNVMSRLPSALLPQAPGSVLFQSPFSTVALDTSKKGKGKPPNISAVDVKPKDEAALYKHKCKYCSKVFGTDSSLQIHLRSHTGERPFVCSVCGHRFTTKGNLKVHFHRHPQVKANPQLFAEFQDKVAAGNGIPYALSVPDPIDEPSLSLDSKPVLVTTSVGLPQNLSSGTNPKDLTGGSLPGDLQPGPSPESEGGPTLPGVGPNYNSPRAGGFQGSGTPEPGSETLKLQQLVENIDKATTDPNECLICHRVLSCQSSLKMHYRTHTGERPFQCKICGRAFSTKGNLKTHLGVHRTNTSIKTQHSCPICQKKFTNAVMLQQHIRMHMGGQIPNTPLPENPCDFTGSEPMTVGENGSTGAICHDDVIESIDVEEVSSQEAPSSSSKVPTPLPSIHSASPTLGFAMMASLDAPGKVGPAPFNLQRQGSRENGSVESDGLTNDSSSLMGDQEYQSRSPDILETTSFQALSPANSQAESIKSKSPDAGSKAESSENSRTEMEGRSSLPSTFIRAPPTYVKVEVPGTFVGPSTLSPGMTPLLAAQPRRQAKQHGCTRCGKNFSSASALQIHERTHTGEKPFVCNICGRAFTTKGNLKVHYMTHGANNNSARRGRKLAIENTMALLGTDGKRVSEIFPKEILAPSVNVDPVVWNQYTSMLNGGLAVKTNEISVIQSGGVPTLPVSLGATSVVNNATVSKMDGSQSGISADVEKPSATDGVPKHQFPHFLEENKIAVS
Technique: universal PBM
Molecule type: double-stranded DNA, one strand shown
Sample: in vitro
Tested at: 600 nM
Setting: 8-mer, flanks averaged, mean of replicates
Reading: higher = stronger binding
Sequence | E-score
AGGAAGAT | -0.0391
CCAGGAGG | -0.259
AGGCCGGC | -0.247
ATTCCAAT | 0.244
ATAACGTG | 0.217
ATCAAGAT | 0.202
GACCAGAA | -0.0772
AGCGGGTA | -0.154

Study 2
Target: Phosphate system positive regulatory protein PHO4, full length, GST-tagged (PHO4, Saccharomyces cerevisiae, UniProt P07270, residues 1-312)
Technique: competition protein-binding microarray
Molecule type: double-stranded DNA, one strand shown
Sample: in vitro
Tested at: 2 µM
Setting: whole 60-bp probe, lowest competitor level
With: Cbf1 competitor, 0.05 µM
Reading: higher = stronger binding
All sequences stand within: … GTCTTGATTCGCTTGACGCTGCTG
Residues (chain): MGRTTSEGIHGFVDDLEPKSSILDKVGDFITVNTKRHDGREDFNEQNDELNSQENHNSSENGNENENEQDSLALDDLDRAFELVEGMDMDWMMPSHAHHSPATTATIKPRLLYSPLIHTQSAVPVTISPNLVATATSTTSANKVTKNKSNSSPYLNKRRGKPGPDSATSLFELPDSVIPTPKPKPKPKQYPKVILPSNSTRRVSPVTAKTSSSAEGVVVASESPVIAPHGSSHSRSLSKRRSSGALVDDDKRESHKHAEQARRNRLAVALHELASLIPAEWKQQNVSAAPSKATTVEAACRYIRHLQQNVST
Sequence | fluorescence intensity [a.u.]
AAAGCGGTAATTTGCTCCGTGGGTGCAGATATCTAT | 5280
TGCGCAACAACTTGTTGAGTGGGTGTATGTCTAGAA | 5000
TGGGTAGTTATAAGAGGCGTGCTTTTTGGCCATCAA | 8030
CCTCCTATGCTGCGTCTCGTGGGTACTATGGCGTCG | 9200
ATATTCTTAGTATTCCATGTGTCTCGTAATACCTTA | 6720
AAAATATATCGCTAGCATGCGTGAGATATGGATAAG | 8720
ATTGTTTCCAGGCGTCATGTGTTTCCTTGATGATAT | 7930
CATACCCAACCTTGGGATGTGGGTGAAGATATTTGT | 4540

Mixed results
Molecule | tested on | assay | test system | setting | endpoint | value
FBL (Homo sapiens, UniProt P22087) | NOL7 (Homo sapiens, UniProt Q9UMY1) | cross-linking MS |  | hits only | interaction screen | cross-linked
Cc1sc(C(=O)O)cc1S(=O)(=O)N1CCCC2(CCS(=O)(=O)C2)C1 (stereo not shown) |  |  | mouse, microsomes or S9 | 2 µM, 0.5 h | remaining compound | 58%
AP1G1 (Homo sapiens, UniProt O43747) | AP1B1 (Homo sapiens, UniProt Q10567) | cross-linking MS |  | hits only | interaction screen | cross-linked
CC(=O)Nc1c(C(C)=O)c(=O)n(C)c2nc(-c3ccc(Cl)cc3Cl)c(-c3ccc(Cl)cc3)cc12 | DRD3 (Homo sapiens, UniProt P35462) | cell-free assay |  | 10 µM | inhibition | 14.3%
PNN (Homo sapiens, UniProt Q9H307) | ACIN1 (Homo sapiens, UniProt Q9UKV3) | cross-linking MS |  | hits only | interaction screen | cross-linked
ARCN1 (Homo sapiens, UniProt P48444) | COPA (Homo sapiens, UniProt P53621) | cross-linking MS |  | hits only | interaction screen | cross-linked

Repeated from above (mixed results):
Molecule | tested on | assay | test system | setting | endpoint | value
PNN (Homo sapiens, UniProt Q9H307) | ACIN1 (Homo sapiens, UniProt Q9UKV3) | cross-linking MS |  | hits only | interaction screen | cross-linked
